Measurements from different studies.
Parts stem from different laboratories: compare values within a part only.

Study 1 — method: universal PBM; molecule type: double-stranded DNA, one strand shown; sample: in vitro; concentration: 600 nM; reading: higher = stronger binding
Target: Sal-like protein 4, full length isoform A (SALL4, Homo sapiens, UniProt Q9UJQ4, residues 1-1053)
UniProt Q9UJQ4, sequence (whole entry, looked up): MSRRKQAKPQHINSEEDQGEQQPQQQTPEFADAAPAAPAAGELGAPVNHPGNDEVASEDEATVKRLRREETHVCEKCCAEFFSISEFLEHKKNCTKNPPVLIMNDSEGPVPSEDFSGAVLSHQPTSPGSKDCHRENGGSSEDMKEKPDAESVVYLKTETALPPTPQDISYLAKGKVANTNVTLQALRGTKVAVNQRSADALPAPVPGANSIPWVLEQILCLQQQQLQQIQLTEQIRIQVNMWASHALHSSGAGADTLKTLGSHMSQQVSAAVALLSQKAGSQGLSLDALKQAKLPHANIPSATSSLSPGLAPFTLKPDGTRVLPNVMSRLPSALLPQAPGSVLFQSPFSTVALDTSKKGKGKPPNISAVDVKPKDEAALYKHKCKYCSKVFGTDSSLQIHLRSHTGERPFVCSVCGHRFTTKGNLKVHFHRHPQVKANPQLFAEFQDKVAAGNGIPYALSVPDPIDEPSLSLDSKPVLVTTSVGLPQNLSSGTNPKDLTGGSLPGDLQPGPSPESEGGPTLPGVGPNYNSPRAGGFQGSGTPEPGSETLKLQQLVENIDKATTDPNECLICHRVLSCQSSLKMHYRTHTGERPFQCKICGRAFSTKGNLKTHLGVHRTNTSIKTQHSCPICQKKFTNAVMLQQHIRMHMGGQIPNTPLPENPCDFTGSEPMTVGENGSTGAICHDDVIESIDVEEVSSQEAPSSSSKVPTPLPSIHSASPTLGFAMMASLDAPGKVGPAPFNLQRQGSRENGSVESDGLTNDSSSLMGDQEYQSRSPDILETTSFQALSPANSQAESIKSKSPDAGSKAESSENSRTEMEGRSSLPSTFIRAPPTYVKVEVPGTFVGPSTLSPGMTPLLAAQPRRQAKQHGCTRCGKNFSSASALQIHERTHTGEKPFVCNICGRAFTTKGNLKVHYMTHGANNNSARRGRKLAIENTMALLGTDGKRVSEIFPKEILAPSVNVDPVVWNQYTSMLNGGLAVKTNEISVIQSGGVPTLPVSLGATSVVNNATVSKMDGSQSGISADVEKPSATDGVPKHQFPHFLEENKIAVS
Setting: 8-mer, flanks averaged, mean of replicates
| Strand | E-score |
| --- | --- |
| CCTCACCG | -0.335 |
| GCAATCCC | -0.237 |
| GACTAGCA | -0.136 |
| CGAAGGGA | -0.216 |
| GCGAACCC | -0.286 |
| GATTAGCC | -0.0611 |
| ATATTCCG | 0.259 |
| AGGGGACT | -0.245 |
| AGGCCGTC | -0.332 |
| CTTCTCGA | -0.0432 |
| CCCCGTGC | -0.34 |
| AGTGACGC | -0.243 |
| ACCTATCG | 0.0449 |
| ATGTCCCA | -0.138 |
| CGGGGCGA | -0.237 |
| AGACAGGA | 0.12 |
| GGGACAGA | -0.246 |
| GACTCAAA | 0.042 |
| TACTCACA | 0.122 |
| CATAGGTA | 0.0628 |
| GGGGTCCA | -0.352 |
| ATTCAACA | 0.15 |
| GAGAGTCA | 0.0874 |

Study 2 — method: protein-binding microarray; molecule type: double-stranded DNA, one strand shown; sample: in vitro; concentration: 250 nM; setting: 60-bp whole probe; added: salmon DNA 0.4 mg/ml; baseline: random background probes; reading: higher = stronger binding; constant ends, left off below: GCCTAGCAC … GTCTTGATTCGCTTGACGCTGCTG
Target: Interferon regulatory factor 7, full length, phosphomimetic (IRF7, Homo sapiens, UniProt Q92985, residues 1-503, S101K/S471D/S472D/S475D/S476D/S477D/S483D/S484D/S487D)
Residues (chain): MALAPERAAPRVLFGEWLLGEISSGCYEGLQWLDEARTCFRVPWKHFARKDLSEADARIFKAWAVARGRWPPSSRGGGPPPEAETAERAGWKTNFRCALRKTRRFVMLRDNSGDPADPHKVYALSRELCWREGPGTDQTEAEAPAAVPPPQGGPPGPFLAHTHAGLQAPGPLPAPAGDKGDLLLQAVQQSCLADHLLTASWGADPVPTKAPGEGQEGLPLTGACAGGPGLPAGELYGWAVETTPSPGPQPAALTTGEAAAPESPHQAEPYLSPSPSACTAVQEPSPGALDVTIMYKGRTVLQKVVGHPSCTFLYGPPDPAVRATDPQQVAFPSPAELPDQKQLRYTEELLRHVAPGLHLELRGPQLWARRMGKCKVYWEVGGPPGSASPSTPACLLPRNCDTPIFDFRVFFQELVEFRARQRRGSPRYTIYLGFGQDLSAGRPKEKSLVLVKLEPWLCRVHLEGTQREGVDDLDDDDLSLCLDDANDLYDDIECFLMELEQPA
| Strand | log fluorescence [z-score] |
| --- | --- |
| TTAGAGATCGGGTTTCGATTAGTGCTA | 6.99 |
| GACGCACTGGACTATCGGGACGTGCTA | -0.224 |
| TTAGGAATGGGGACTGGGTTAGTGCTA | 0.213 |
| GTCGATATCGGGACTGGAGACGTGCTA | 0.04 |
| TTTGGACTGGACTTTCGGTTAGTGCTA | 0.816 |
| GACGATTTCAGTTCAGAGACGTGCTAG | 0.419 |
| GAAGGTATCGACTTTCGGGACGTGCTA | 1.28 |
| GACGGACGGCTTTTCCTGACGTGCTAG | -0.655 |
| TTAAGTTCCGGTTTCGGTTAGTGCTAG | 11.6 |
| TCAGGTTTCCTTATCCTTTAGTGCTAG | 3.14 |
| GACGGTCTCGTTCTCCTGACGTGCTAG | 2.25 |
| TAAGATATCAGACTGGATTAGTGCTAG | 0.123 |
| TTAGGACTGGGTCTCGCTTAGTGCTAG | 0.418 |
| TTAAGTTTCGGGTTTCGGTTAGTGCTA | 13 |
| TTGGATTTCGGGTTTCGATTAGTGCTA | 7.1 |
| CTGTTTCTACTGTCTGTTTCCGTGCTA | 3.28 |
| GAGGGTTTCCTACTGCTGACGTGCTAG | 0.697 |
| GACTAACTGGGGACTGGAGACGTGCTA | -0.12 |
| TTAGGTTTCGACACTGGGTTAGTGCTA | 3.4 |
| GACGATATCAGTATGGAGACGTGCTAG | -0.365 |
| TTAGGAATCGGGTATCGGTTAGTGCTA | 1.07 |
| TTAAGAATGTTTTTCATTGTGTGCTAG | 0.0224 |
| TAAGGTATCGACTTTCGGTTAGTGCTA | 3.21 |
| GACGGCATCGACACTGGGGACGTGCTA | -0.752 |
| TCACCTTGGCCTCTAGGACTGTGCTAG | -0.507 |

Study 3 — method: RNAcompete; molecule type: RNA; sample: in vitro; concentration: 20 nM; setting: 7-mer, probes averaged, single round; baseline: mean of 7-mers; reading: higher = stronger binding
Target: PABPC1L2, full length, GST fusion (mouse, UniProt A0ABA7IW68)
Target sequence (chain): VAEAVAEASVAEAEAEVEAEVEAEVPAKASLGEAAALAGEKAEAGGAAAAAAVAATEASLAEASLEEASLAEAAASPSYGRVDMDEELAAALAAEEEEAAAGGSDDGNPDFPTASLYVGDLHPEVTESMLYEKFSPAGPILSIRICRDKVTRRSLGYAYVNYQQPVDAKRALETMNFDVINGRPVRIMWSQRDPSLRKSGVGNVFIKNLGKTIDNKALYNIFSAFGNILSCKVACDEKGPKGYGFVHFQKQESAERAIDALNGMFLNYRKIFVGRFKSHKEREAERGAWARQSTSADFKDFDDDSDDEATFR
| Strand | 7-mer Z-score |
| --- | --- |
| GCAGACU | 0.108 |
| UUUCUGC | -0.325 |
| CCAAAUG | 0.0895 |
| CCACUUC | -0.18 |
| CUCCCCC | -0.496 |
| GGCGAGA | 0.349 |
| UUCAGGC | -0.293 |
| AUGACCA | 0.186 |
| UCGAUUG | -0.34 |
| CUGGGGG | 0.16 |
| GUACGCA | -0.133 |
| AAUAAGC | 0.379 |
| GACGCCA | -0.177 |
| GGGAUUG | 0.0787 |
| GGAUACU | 0.0515 |
| CGGUCGU | -0.345 |
| AGAGCGC | -0.228 |
| AUAUGCU | -0.144 |
| GGUCUAU | -0.188 |
| AGAAACC | 0.206 |
| UCGUCUC | -0.581 |
| GCACCUU | -0.311 |
| CCAUACA | -0.0192 |
| CCAAUGC | -0.235 |
| AGAGGUU | -0.199 |

Study 4 — method: protein binding microarray; molecule type: double-stranded DNA, one strand shown; sample: in vitro; concentration: not given; baseline: not given; reading: higher = stronger binding
Target: Histone acetyltransferase KAT6A, both winged helices, GST fusion (KAT6A, Homo sapiens, UniProt Q92794, residues 1-181)
Setting: 8-mer, flanks averaged, mean of 2 arrays, mostly near background
Construct (chain): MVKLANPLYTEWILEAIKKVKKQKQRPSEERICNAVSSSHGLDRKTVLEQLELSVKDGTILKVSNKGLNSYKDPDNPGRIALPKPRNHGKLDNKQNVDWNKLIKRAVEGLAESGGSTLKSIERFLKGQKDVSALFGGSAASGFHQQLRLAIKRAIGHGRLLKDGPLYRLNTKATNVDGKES
| Strand | E-score |
| --- | --- |
| AGTCGCAG | 0.0458 |
| GAGGGAGA | -0.301 |
| CATGAATG | -0.0773 |
| TAGATGAA | -0.0469 |
| GGAGAAAC | 0.0387 |
| AACAGTAG | -0.0261 |
| ACTCACAA | -0.2 |
| TTAGGGAA | -0.177 |
| GAAATTCC | 0.0114 |
| GGCCCGAC | 0.125 |
| ACGGCCAT | 0.138 |
| CACGCGAC | 0.146 |
| AATGGGCA | -0.118 |
| ATGTCCTG | -0.00986 |
| TCGTGACA | -0.0136 |
| TAGCCAGA | -0.128 |
| GCATACTA | -0.0899 |
| AAGTACGG | 0.229 |
| CGGGGCAC | 0.211 |
| AGACATAC | -0.103 |
| CTCTGGCC | -0.154 |
| GGTTCCCA | -0.00658 |
| AGGAACTC | -0.0511 |

Study 5 — method: RNA Bind-n-Seq; molecule type: RNA; sample: in vitro; concentration: not given; baseline: input RNA pool; reading: higher = stronger binding
Target: RING finger protein unkempt homolog, zinc fingers 1-6, GST-SBP tag (UNK, Homo sapiens, UniProt Q9C0B0, residues 30-357)
UniProt Q9C0B0, sequence (30-357, looked up): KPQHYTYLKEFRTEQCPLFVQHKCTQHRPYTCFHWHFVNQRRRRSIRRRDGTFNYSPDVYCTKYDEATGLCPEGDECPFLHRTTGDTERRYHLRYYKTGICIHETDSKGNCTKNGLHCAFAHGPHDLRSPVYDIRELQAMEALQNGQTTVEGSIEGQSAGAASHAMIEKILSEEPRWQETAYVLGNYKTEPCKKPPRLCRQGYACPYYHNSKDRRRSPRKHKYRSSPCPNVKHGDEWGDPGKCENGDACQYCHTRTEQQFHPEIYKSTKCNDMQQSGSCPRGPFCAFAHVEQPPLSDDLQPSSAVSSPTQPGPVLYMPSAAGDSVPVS
Setting: RNA with constant flanks, human and mouse sites, ends assumed
Constant ends, left off below: GGGAGUUCUACAGUCCGACGAUC … CAACAGAGGAUUGAGCAUCA
| Strand | bound/input enrichment |
| --- | --- |
| UCAGUGAAAUGCUUUCCUAAAAAGUGAAAGGCUAAAGAUGUCUAGACAAAAUUUAGUGGCUUUGACAGUGACCACCCUUCUGGGUGUGGCCAUGGGGGGAUUUGUCCUGUGGAAAGGCAU | 0.387 ratio |
| GGAAAUGCUGCCUGGCAAGAACAGUUGAAACAGAAGAAAGCUCCAGUUCAUGUAAAACGUUGGUUUGGCUUUCUUGAAGCCCAGCAGGCCUUCCAGUCAGUAGGUACCAAGUGGGAUGUU | 0.282 ratio |
| GAGGAGCCAGAGGUGAUCCCUGGACCUCCAUCAGAAAGCCCUGGCAUGCUAACAAAGCUCCAGAUCAAACAGAUGAUGGAAGCAGCAACACGACAAAUCGAGGAACGGAAAAAACAGCUG | 0.124 ratio |
| UGGUCUUCAGAGAGCAACUAUCCUCCCCAGUACUUGAUUCUAAAGCUCGAAAGGCCUGCUAUAGUUCAGAAUAUCACAUUUGGAAAAUAUGAGAAAACUCAUGUUUGCAAUUUGAAGAAA | 0.16 ratio |
| UCUGAAAUCAGCAGAGGCUGUUUUGCCUAACAGAGGAAAAGUGGUAAAAGCCAGAGCCUCUCCUUUAUGGAGACAGCAUUGUUCCCUUCCUGGUCAGGCAGGAGAAAGAAGCUCUUCGCU | 0.117 ratio |
| UUUUGUAUUGUACAUAAAAUUACCUAGAAAUGCACUUUUCCUCCAAAAUGUAGGUUCGUGAAUAGACUUAGCAUGAUGAAGCUGUCUUUACAGUGAAUGCUUACCCUGUGUAGAGAAAGC | 1.13 ratio |
| UUCUGCACAUCGGAUGCACGCAUAAACUUGAAUUUAUUCUAGCAGUUAACUUAGUUAGAUGGGGCAGAGGAAGUGAAAACUUGAGGGCAUUAUUAAUGCUGCUUUUAGCGUAUGUCCCUU | 0.563 ratio |
| CCUCUGGAAGCCUUGCGCAGAGCUUACUUUGUAAUUGUUGGAGAAUAACUGCUGAAUUUUUAGCUGUUUUGAGUUGAUUCGCACCACUGCACCACAACUCAAUAUGAAAACUAUUUAACU | 0.759 ratio |
| AAGAUCUUUAAUGUUGCCAUUCCCCGAUUCCAUAUGGCAUGUCCAACAUUCAGGGUGUCUAUAGCCCGAUUGGAAAUGGGUCCUGAUGAAUAUGAAGAGAUGGAAGAAGAGGAGGAGGAG | 0.195 ratio |
| AGCAGCAUCUCUAGGACACAAGGAACAGAAACCCAUUGUCAAGAGAGUUUUGUCUCGCCAGAACCUGGGAGCAGAGGACGGUCUGCUCCUGACCCCGACUUGGAAGAAUACAGCAAAGGA | 0.159 ratio |
| GUCACAAGUAGGUUGGUAGAAAACAACCUGAUUCUGACCCUUUCUUUUUUUUUUUCCUGUUUUAGUCUCAGUAGAUCUUUUCAAGCACUGUCCUUACAGCUCAUGAAUGUUUAGGUCUUU | 1.09 ratio |

For quick reference, copied from above (study 1):
| Strand | E-score |
| --- | --- |
| ATATTCCG | 0.259 |
| AGGGGACT | -0.245 |
| AGGCCGTC | -0.332 |
| CTTCTCGA | -0.0432 |
| CCCCGTGC | -0.34 |
| AGTGACGC | -0.243 |
| ACCTATCG | 0.0449 |
| ATGTCCCA | -0.138 |
| CGGGGCGA | -0.237 |
| AGACAGGA | 0.12 |
| GGGACAGA | -0.246 |
| GACTCAAA | 0.042 |
| TACTCACA | 0.122 |
| CATAGGTA | 0.0628 |
| GGGGTCCA | -0.352 |
| ATTCAACA | 0.15 |
| GAGAGTCA | 0.0874 |
